{"data": "Experimental data collected from several papers", "Uncharacterized hydrolase SAUSA300_2518": "Uncharacterized hydrolase SAUSA300_2518 (Staphylococcus aureus, UniProt Q2FDS6)", "lasR": "Transcriptional activator protein LasR (lasR, Pseudomonas aeruginosa, UniProt P25084)", "note": "Lines come from different studies, so protocols differ. Values joined by “and” are separate records of one study, mostly repeats; a detail may differ. Numbers after ± are the reported error.", "UniProt P41595, sequence (whole entry, looked up)": "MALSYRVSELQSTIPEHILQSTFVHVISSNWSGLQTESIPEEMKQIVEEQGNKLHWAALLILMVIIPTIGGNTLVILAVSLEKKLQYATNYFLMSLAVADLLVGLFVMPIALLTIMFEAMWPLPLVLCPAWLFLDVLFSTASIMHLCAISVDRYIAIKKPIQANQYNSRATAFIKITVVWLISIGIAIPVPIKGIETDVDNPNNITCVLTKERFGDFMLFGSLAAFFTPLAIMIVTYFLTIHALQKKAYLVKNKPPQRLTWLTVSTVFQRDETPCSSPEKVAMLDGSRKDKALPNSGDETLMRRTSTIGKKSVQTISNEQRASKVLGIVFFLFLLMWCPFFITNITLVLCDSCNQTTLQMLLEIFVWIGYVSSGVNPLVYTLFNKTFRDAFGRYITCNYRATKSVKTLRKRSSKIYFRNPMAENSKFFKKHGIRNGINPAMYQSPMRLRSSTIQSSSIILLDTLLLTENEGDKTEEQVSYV", "UniProt P23141, sequence (whole entry, looked up)": "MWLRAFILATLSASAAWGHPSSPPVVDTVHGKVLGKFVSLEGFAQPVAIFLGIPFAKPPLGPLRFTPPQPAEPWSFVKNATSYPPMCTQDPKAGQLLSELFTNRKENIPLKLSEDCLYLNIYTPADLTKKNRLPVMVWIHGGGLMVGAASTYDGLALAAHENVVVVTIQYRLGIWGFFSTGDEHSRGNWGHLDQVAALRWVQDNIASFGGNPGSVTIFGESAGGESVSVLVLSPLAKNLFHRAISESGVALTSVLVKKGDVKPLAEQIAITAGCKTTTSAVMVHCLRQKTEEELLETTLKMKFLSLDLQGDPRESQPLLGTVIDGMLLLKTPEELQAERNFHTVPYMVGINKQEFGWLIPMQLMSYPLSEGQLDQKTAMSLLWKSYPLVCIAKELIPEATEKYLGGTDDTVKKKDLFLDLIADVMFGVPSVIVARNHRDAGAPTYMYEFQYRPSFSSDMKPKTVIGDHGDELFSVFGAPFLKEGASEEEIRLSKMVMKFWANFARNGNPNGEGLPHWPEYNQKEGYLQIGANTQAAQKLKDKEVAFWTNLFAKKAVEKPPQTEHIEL", "UniProt P08311, sequence (whole entry, looked up)": "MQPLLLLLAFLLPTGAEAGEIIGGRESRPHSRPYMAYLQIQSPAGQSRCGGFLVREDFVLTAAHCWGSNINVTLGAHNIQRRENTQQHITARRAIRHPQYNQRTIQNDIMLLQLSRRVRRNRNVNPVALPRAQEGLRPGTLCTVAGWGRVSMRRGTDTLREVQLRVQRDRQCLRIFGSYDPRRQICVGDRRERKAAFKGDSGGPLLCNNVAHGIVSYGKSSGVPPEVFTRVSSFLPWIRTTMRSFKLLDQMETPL", "UniProt P34981, sequence (whole entry, looked up)": "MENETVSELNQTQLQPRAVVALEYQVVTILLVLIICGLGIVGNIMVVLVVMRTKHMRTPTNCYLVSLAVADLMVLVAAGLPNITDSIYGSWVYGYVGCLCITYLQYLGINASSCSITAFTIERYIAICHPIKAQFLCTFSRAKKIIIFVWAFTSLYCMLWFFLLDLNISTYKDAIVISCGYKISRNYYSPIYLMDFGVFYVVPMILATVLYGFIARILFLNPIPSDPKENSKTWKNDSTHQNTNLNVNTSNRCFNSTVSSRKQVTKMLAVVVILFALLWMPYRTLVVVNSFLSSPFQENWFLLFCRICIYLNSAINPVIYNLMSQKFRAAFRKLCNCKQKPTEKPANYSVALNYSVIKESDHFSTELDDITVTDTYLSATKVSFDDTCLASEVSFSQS", "UniProt Q99873, sequence (whole entry, looked up)": "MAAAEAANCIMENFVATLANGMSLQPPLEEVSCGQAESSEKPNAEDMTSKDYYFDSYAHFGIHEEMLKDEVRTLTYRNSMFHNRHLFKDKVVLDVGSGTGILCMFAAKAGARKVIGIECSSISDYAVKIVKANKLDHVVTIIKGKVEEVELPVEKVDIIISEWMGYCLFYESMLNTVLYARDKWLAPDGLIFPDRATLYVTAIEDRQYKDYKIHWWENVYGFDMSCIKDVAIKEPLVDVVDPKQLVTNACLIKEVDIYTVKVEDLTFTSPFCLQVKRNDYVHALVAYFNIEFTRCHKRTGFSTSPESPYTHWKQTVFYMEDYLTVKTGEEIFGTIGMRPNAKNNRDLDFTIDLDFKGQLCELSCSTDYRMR", "UniProt Q15349, sequence (whole entry, looked up)": "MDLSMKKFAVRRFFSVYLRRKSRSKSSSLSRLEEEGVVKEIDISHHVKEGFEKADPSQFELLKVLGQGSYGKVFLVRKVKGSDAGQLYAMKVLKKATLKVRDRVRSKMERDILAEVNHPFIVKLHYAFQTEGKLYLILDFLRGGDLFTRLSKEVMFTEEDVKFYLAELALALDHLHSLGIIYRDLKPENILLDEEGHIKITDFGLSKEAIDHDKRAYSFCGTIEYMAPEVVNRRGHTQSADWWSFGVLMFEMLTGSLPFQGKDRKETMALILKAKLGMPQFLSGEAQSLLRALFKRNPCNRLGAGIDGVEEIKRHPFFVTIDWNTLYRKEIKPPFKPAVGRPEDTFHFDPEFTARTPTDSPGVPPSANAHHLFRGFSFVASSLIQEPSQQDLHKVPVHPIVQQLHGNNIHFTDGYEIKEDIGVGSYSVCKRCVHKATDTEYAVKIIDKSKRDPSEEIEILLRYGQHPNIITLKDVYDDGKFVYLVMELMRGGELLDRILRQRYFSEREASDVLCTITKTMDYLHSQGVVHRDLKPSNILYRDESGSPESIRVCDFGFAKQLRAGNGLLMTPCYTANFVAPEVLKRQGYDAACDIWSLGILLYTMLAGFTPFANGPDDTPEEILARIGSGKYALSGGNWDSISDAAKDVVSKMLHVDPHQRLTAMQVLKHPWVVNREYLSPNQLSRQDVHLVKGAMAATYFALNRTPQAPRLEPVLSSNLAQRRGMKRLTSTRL", "UniProt Q96GD4, sequence (whole entry, looked up)": "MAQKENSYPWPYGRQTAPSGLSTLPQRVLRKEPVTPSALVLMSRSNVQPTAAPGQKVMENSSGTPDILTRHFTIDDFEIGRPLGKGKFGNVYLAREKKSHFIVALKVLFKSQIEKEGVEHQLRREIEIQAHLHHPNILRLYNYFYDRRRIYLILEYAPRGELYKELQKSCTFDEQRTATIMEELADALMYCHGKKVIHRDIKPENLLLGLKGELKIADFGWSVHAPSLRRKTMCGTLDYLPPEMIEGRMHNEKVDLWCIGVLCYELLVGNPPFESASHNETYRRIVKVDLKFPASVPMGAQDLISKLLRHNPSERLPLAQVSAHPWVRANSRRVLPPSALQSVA", "UniProt Q13043, sequence (whole entry, looked up)": "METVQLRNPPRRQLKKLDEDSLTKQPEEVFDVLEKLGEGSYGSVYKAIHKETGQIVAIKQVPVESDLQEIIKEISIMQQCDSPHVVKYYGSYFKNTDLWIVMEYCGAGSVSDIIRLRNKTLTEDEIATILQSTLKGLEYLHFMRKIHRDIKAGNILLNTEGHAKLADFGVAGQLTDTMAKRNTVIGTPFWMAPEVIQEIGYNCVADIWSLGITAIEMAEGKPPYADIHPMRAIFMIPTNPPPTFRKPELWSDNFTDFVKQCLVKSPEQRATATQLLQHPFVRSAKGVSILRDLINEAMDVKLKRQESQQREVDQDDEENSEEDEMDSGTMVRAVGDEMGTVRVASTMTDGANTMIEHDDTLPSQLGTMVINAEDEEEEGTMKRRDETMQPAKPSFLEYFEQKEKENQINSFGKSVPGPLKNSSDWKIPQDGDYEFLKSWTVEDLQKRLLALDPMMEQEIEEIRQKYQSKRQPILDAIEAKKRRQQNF", "UniProt P04049, sequence (whole entry, looked up)": "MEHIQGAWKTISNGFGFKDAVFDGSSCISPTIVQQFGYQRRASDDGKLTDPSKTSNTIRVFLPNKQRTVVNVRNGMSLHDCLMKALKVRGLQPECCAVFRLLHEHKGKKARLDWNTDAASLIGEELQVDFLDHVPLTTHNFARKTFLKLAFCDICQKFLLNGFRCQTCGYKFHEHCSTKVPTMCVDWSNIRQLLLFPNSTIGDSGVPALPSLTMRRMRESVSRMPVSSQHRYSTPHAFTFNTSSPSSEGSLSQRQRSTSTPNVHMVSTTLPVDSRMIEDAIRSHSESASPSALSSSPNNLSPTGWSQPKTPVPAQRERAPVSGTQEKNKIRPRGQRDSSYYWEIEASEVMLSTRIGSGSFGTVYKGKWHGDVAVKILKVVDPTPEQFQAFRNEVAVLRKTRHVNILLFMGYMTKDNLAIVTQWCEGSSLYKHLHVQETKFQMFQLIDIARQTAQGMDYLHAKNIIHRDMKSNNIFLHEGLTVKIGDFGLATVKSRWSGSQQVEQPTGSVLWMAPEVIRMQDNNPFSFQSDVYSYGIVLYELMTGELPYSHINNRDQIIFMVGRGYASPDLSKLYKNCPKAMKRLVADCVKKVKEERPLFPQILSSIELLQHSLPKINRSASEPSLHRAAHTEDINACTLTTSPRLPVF"}
{"SMILES": "CCOC(=O)C1CCN(C(=O)n2cc[n+](C)c2)CC1", "target": "Uncharacterized hydrolase SAUSA300_2518", "assay": "enzyme activity, inhibitor", "setting": "50 µM", "inhibition": "22.2%"}
{"SMILES": "O=C(CN1CN(c2ccccc2)C2(CCN(C(=O)c3cnc4[nH]ncc4c3)CC2)C1=O)NCC(F)(F)F", "target": "Serine/threonine-protein kinase 4 (STK4, Homo sapiens, UniProt Q13043)", "assay": "inhibitor", "setting": "concentration not given", "inhibition": "< 50%"}
{"SMILES": "Cc1ccc2c(n1)c(-c1cccc(S(C)(=O)=O)c1)c(C)n2C/C(F)=C/CN", "target": "Cathepsin G (CTSG, Homo sapiens, UniProt P08311)", "assay": "cell-free assay", "setting": "10 µM", "inhibition": "-12%"}
{"SMILES": "O=C(CCCc1ccccc1)NC1CCOC1=O (centres unmarked)", "target": "lasR", "assay": "reporter gene, antagonist", "test system": "Pseudomonas aeruginosa PAO-JP2", "setting": "100 µM, plasI-LVAgfp reporter, together with: OdDHL 150 nM", "inhibition": "27%"}
{"SMILES": "N[C@H](C(=O)N1CCCC1)C1CCN(c2nccc3c(-c4ncc(Cl)cc4Cl)cccc23)CC1", "target": "Thyrotropin-releasing hormone receptor (TRHR, Homo sapiens, UniProt P34981)", "assay": "functional response, antagonist", "setting": "10 µM", "inhibition": "34%"}
{"SMILES": "O=C(Nc1ccccc1NC(=O)c1cccc(Cl)c1)c1cccc(Cl)c1", "target": "lasR", "assay": "reporter gene, antagonist", "test system": "Escherichia coli JLD271", "setting": "10 µM, pSC11 and pJN105L plasmids, together with: OdDHL 2 nM", "inhibition": "12%"}
{"SMILES": "COc1cc(C[C@H](C)[C@H](C)Cc2ccc3c(c2)OCO3)ccc1O", "target": "Liver carboxylesterase 1 (CES1, Homo sapiens, UniProt P23141)", "assay": "intracellular hydrolysis, inhibitor, bioluminescence imaging", "test system": "renal cells", "setting": "20 µM", "inhibition": "inhibited"}
{"SMILES": "COc1ccc(F)cc1S(=O)(=O)Nc1cnc2c(c1)C(=O)NCCO2", "target": "L-type calcium channel Benzothiazepine site", "assay": "radioligand binding", "setting": "10 µM", "inhibition": "19%"}
{"SMILES": "CC(C)C[C@H](NC(=O)[C@@H]1O[C@H]1C(=O)O)C(=O)NCCCCNC(=N)N", "target": "Ribosomal processing cysteine protease Prp (prp, Staphylococcus aureus, UniProt Q2FXS9, N63Q)", "assay": "enzyme activity, inhibitor", "setting": "10 µM, prp 21.4 nM, together with: FITC peptide substrate 0.5 µM", "inhibition": "12.5 ± 11.1%"}
{"SMILES": "C=CC(=O)Nc1cc(-c2nn(C3CCC(N4CCN(C(C)=O)CC4)CC3)c3ncnc(N)c23)ccc1Oc1ccccc1 (centres unmarked)", "target": "Serine/threonine-protein kinase mTOR (MTOR, Homo sapiens, UniProt P42345)", "assay": "inhibitor", "setting": "2 µM", "inhibition": "8.2%"}
{"SMILES": "Cc1cc(Nc2nc(C[C@@]3(C(=O)O)CCN(Cc4cccc(Cl)c4F)[C@H](C)C3)cc(C)c2F)[nH]n1", "target": "5-hydroxytryptamine receptor 2B (HTR2B, Homo sapiens, UniProt P41595)", "assay": "inhibitor", "setting": "10 µM", "inhibition": "-9.41%"}
{"SMILES": "N#Cc1ccc(N2N=C3c4ccc(C(=O)O)cc4CCC3C2C2CCCC2)cc1Cl (centres unmarked)", "target": "Protein arginine N-methyltransferase 1 (PRMT1, Homo sapiens, UniProt Q99873)", "assay": "enzyme activity, inhibitor", "setting": "10 µM", "inhibition": "4%"}
{"SMILES": "CS(C)(=O)=Nc1ccc(-c2ccc(-c3nc4cc(O[C@@H]5CO[C@H]6[C@@H]5OC[C@H]6O)[nH]c4cc3F)cc2)cc1", "target": "Ribosomal protein S6 kinase alpha-2 (RPS6KA2, Homo sapiens, UniProt Q15349)", "assay": "enzyme activity, inhibitor", "setting": "10 µM", "inhibition": "-3%"}
{"SMILES": "CC(=O)NC[C@@H]1[C@@H](O)C[C@H]2[C@H](O)C[C@@H](CO)N12", "target": "β-N-acetylglucosaminidase", "assay": "enzyme activity, inhibitor, colorimetric", "test system": "Canavalia ensiformis", "setting": "17.1 nM, together with: p-nitrophenyl GlcNAc substrate", "inhibition": "63.6% and 63.9%"}
{"SMILES": "C[n+]1ccn(C(=O)N2CCOCC2)c1", "target": "Uncharacterized hydrolase SAUSA300_2518", "assay": "enzyme activity, inhibitor", "setting": "50 µM", "inhibition": "98.2%"}
{"SMILES": "CN(C)[C@H]1C[C@@]23CC[C@@]4(O2)C(=CC[C@]2(C)[C@@H](c5ccc6ccncc6c5)CC[C@H]24)C=C3[C@@H](O)[C@@H]1O", "target": "RAF proto-oncogene serine/threonine-protein kinase (RAF1, Homo sapiens, UniProt P04049)", "assay": "ATP probe labelling, inhibitor, KiNativ profiling", "setting": "1 µM", "inhibition": "-4.6%"}
{"SMILES": "O=c1cc(-c2ccc(O)cc2)oc2c(C3OC(CO)C(O)C(O)C3O)c(O)c(C3OC(CO)C(O)C(O)C3O)c(O)c12 (centres unmarked)", "target": "3',5'-cyclic-AMP phosphodiesterase 4D (PDE4D, Homo sapiens, UniProt Q08499)", "assay": "enzyme activity, inhibitor, radiometric", "setting": "50 µM", "inhibition": "4.71%"}
{"SMILES": "C[C@H](NCc1ccc(-c2ccc(C(F)(F)F)cc2)cc1)C(N)=O", "target": "Aurora kinase B (AURKB, Homo sapiens, UniProt Q96GD4)", "assay": "cell-free assay, competition with immobilised ligand", "setting": "1 µM", "inhibition": "8%"}
{"SMILES": "CCCCCCCCCC(=O)CC(=O)Nc1ccccc1", "target": "lasR", "assay": "reporter gene, antagonist", "test system": "Escherichia coli JLD271", "setting": "10 µM, pSC11 and pJN105L plasmids, together with: OdDHL 2 nM", "inhibition": "-4%"}
{"SMILES": "O=C(O)c1ccccc1/C=N/Nc1nc(-c2ccccc2Cl)cs1", "target": "NPM1-ALK", "assay": "enzyme activity", "setting": "1 µM", "inhibition": "20.8%"}
{"SMILES": "O=C(CCCCCCCCCN=C=S)CC(=O)N[C@H]1CCOC1=O", "target": "lasR", "assay": "reporter gene, antagonist", "test system": "Pseudomonas aeruginosa PAO-JP2", "setting": "100 µM, plasI-LVAgfp reporter, together with: OdDHL 150 nM", "inhibition": "-74%"}
{"SMILES": "CN(/N=C/c1ccccc1C(=O)O)c1nc(-c2ccccc2Cl)cs1", "target": "Death-associated protein kinase 1 (DAPK1, Homo sapiens, UniProt P53355)", "assay": "enzyme activity, inhibitor", "setting": "1 µM", "inhibition": "8.43%"}
{"SMILES": "CC(C)[C@H]1NC(=O)C[C@H]2/C=C/CCSSC[C@@H](NC1=O)C(=O)N[C@H](Cc1cccc3ccccc13)C(=O)NCC(=O)O2", "target": "Dual specificity tyrosine-phosphorylation-regulated kinase 1B (DYRK1B, Homo sapiens, UniProt Q9Y463)", "assay": "enzyme activity, inhibitor", "setting": "10 µM", "inhibition": "5.5%"}
{"note": "Some of these lines once more:"}
{"SMILES": "CC(C)C[C@H](NC(=O)[C@@H]1O[C@H]1C(=O)O)C(=O)NCCCCNC(=N)N", "target": "Ribosomal processing cysteine protease Prp (prp, Staphylococcus aureus, UniProt Q2FXS9, N63Q)", "assay": "enzyme activity, inhibitor", "setting": "10 µM, prp 21.4 nM, together with: FITC peptide substrate 0.5 µM", "inhibition": "12.5 ± 11.1%"}
{"SMILES": "C=CC(=O)Nc1cc(-c2nn(C3CCC(N4CCN(C(C)=O)CC4)CC3)c3ncnc(N)c23)ccc1Oc1ccccc1 (centres unmarked)", "target": "Serine/threonine-protein kinase mTOR (MTOR, Homo sapiens, UniProt P42345)", "assay": "inhibitor", "setting": "2 µM", "inhibition": "8.2%"}
{"SMILES": "Cc1cc(Nc2nc(C[C@@]3(C(=O)O)CCN(Cc4cccc(Cl)c4F)[C@H](C)C3)cc(C)c2F)[nH]n1", "target": "5-hydroxytryptamine receptor 2B (HTR2B, Homo sapiens, UniProt P41595)", "assay": "inhibitor", "setting": "10 µM", "inhibition": "-9.41%"}
